Measured values gathered from unrelated publications.
Parts stem from different laboratories: compare values within a part only. Values joined by “and” are separate records of one study, mostly repeats; a detail may differ.
UniProt Q99558, sequence (whole entry, looked up): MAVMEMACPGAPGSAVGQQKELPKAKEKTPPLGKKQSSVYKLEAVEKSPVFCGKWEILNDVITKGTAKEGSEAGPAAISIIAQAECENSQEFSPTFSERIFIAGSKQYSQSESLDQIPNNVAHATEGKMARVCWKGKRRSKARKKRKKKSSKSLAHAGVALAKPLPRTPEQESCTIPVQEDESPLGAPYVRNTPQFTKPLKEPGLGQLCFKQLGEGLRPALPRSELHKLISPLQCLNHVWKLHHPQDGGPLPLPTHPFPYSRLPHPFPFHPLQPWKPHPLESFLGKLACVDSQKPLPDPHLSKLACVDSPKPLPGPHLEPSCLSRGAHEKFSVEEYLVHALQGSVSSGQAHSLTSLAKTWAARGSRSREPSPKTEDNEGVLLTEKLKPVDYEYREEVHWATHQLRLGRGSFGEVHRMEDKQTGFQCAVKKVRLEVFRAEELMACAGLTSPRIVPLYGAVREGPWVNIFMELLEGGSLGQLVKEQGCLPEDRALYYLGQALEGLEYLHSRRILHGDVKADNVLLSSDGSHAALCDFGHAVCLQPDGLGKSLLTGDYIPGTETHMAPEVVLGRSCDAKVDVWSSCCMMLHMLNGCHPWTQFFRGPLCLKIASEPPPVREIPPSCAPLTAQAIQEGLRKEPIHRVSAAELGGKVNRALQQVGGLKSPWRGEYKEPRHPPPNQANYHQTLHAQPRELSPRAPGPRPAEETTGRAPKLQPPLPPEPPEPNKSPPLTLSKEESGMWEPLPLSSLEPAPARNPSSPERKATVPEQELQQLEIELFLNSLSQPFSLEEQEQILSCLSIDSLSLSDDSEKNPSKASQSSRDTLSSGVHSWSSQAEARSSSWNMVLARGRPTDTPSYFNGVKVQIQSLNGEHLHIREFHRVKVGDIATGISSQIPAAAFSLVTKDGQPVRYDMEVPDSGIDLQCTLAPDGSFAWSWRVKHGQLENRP
UniProt Q96PY6, sequence (whole entry, looked up): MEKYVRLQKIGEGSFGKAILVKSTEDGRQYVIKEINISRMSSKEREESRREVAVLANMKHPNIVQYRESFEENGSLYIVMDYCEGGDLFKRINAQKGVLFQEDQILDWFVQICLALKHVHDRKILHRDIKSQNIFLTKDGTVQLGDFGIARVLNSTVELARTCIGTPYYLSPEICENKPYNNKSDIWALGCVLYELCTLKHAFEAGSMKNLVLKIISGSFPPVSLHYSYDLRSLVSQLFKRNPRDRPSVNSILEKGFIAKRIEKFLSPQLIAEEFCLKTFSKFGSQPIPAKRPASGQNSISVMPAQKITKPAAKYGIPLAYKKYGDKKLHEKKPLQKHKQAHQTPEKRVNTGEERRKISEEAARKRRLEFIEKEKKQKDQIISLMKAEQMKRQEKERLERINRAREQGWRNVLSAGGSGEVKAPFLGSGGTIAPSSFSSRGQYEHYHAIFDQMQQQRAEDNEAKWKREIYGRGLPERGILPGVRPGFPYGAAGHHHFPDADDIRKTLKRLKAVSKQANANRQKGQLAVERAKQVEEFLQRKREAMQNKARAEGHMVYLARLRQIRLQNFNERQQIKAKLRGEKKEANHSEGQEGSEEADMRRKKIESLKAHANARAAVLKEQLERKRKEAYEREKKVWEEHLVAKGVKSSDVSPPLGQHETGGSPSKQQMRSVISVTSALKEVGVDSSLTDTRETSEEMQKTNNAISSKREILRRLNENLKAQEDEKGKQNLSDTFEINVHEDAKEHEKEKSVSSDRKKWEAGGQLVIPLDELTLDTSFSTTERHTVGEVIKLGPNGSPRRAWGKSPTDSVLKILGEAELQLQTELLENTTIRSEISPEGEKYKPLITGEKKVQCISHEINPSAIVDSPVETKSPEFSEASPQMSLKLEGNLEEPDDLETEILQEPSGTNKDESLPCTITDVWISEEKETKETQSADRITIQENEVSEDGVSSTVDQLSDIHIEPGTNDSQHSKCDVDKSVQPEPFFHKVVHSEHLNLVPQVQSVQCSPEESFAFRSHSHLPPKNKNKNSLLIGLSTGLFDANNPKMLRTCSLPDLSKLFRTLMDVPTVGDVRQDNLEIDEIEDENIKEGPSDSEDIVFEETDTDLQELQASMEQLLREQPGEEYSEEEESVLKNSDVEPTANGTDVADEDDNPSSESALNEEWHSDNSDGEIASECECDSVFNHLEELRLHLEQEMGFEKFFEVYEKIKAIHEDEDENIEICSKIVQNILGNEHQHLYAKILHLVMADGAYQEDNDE
UniProt Q99683, sequence (whole entry, looked up): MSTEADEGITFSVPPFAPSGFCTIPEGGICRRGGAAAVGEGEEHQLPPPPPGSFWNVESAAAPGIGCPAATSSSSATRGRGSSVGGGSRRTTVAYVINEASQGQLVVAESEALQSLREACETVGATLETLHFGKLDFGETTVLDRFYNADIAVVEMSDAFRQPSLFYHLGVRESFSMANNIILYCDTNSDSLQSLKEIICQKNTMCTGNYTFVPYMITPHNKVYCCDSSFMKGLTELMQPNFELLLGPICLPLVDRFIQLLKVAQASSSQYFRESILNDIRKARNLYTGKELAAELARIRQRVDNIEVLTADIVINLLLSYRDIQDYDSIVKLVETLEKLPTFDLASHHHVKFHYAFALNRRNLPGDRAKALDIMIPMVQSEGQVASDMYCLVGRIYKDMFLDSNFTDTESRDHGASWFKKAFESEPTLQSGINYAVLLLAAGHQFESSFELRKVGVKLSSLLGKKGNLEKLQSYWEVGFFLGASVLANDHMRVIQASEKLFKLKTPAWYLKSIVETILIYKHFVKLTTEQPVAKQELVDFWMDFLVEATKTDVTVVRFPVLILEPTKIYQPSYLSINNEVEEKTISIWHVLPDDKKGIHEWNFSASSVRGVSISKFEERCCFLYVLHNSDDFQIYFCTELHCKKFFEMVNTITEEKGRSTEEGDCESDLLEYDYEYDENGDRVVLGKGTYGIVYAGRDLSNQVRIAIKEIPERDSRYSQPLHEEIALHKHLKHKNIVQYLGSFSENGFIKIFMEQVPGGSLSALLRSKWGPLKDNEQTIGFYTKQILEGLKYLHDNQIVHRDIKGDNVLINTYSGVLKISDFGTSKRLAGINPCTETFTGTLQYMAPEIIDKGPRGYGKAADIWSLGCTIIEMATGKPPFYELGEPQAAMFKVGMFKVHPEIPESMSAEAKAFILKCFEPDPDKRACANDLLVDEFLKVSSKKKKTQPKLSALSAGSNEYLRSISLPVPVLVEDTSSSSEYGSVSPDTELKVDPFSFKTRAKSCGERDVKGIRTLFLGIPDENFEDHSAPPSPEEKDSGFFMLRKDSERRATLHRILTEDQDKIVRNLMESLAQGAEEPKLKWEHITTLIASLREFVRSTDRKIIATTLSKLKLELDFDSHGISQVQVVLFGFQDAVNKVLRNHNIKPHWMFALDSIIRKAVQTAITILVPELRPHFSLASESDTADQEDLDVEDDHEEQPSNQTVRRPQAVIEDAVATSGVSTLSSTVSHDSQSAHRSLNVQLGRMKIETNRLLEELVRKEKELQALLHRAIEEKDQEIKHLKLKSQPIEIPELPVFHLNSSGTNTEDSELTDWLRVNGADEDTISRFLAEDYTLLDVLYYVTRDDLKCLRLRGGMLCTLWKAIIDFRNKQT
UniProt Q13464, sequence (whole entry, looked up): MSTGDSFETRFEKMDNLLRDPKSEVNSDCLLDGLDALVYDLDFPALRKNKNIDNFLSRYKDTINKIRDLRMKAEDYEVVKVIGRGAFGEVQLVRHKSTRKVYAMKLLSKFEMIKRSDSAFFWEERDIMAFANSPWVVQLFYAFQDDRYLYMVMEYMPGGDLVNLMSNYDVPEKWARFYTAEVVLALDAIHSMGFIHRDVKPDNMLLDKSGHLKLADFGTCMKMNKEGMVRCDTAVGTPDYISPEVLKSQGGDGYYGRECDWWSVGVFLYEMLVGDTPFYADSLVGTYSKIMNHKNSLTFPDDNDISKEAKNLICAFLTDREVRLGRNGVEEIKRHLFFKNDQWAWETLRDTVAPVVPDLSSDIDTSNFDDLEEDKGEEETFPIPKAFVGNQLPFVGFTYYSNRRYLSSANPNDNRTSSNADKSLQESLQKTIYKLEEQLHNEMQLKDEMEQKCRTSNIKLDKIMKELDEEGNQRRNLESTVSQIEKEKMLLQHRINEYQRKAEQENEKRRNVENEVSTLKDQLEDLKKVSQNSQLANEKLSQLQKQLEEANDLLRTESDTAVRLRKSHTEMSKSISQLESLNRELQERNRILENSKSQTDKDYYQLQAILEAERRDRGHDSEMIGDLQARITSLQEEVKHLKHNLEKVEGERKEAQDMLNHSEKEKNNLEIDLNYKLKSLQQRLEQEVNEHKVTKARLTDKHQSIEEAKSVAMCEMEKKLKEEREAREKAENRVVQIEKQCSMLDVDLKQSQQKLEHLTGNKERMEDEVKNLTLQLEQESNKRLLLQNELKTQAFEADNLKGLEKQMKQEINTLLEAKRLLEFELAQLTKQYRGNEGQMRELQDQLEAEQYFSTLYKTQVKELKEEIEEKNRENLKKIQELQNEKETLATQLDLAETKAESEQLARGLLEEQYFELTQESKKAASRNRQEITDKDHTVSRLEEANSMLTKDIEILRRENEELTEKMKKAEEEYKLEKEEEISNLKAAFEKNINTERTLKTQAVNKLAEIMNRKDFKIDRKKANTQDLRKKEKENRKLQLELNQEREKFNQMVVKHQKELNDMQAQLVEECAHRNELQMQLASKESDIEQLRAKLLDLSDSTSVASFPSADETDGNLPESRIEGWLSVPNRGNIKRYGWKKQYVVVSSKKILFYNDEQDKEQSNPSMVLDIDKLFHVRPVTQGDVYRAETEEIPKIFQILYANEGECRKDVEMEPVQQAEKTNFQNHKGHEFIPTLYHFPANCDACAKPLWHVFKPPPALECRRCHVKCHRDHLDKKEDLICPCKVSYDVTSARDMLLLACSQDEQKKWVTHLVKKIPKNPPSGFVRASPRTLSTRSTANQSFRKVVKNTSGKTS

Set 1
Host: mouse
Sample: microsomes or S9
Tested at: 2 µM
Time: 0.5 h
For COc1ccc2c(c1)CCC(N1CCCCC1)C2O (centres unmarked), the remaining compound was 59.9%.
With Cc1ccc(CNC(=O)N2Cc3c(sc4c3CCCC4)-n3cccc3C2C(C)C)cc1 (centres unmarked) the remaining compound was 0.621%.
With Cn1cc(-c2cc3n(n2)CCC(=O)N3CCCC(=O)N2CCN(c3ccccn3)CC2)c2ccccc21 the remaining compound was 30.1%.
With COc1cc(OC)c(OC)cc1/C=N/N=C1\NC(=O)C(CC(=O)O)S1 (centres unmarked) the remaining compound was 50%.
The remaining compound of CC(NS(C)(=O)=O)c1nnc(N2CCC(C(C)(C)C)C2)n1CC1CCCCO1 (centres unmarked) is reported as 6.22%.
With O=S(=O)(Nc1cc(-c2cccs2)n[nH]1)c1c[nH]c2ncccc12 the remaining compound was 59%.

Set 2
Cell line: mouse MPNST tumor cells
Technique: high-content immunofluorescence imaging
Measured: nuclear SOX9
Tested at: 10 µM
Time: 12 h
Notes: mean of 2 replicates
Baseline: DMSO control
Reading: higher = more nuclear SOX9
For O=C(Nc1ccc(S(=O)(=O)Nc2nccs2)cc1)C(c1ccccc1)c1ccccc1, “nuclear SOX9 intensity” read 96.8 % of DMSO.
For Cc1onc(-c2ccccc2)c1-c1ccc(S(N)(=O)=O)cc1, “nuclear SOX9 intensity” read 99.4 % of DMSO and 111 % of DMSO.
For CC1(C)c2cc(Cl)ccc2N(CCc2nn[nH]n2)c2ccc(Cl)cc21, “nuclear SOX9 intensity” read 96.5 % of DMSO.
Under “nuclear SOX9 intensity”, COC(=O)C1=C(C)NC(C)=C(C(=O)OC2CCCN(Cc3ccccc3)C2)C1c1cccc([N+](=O)[O-])c1 (centres unmarked) is recorded as 139 % of DMSO.
CCc1cccc2c3c([nH]c12)C(CC)(CC(=O)O)OCC3 (centres unmarked): “nuclear SOX9 intensity” 105 % of DMSO.
N=C(N)NCCC[C@@H](NC(=O)C(c1ccccc1)c1ccccc1)C(=O)NCc1ccc(CNC(N)=O)cc1 — result for “nuclear SOX9 intensity”: 129 % of DMSO.

Set 3
Structure (SMILES): Cn1cc(/C=C2\C(=O)Nc3ccc(S(N)(=O)=O)cc32)c2ccccc21
Effect on: enzyme activity
Mode: inhibitor
Tested at: 0.5 µM
Baseline: control
It gave 86.4% for remaining activity (TAOK2 (Homo sapiens, UniProt Q9UL54)).
It gave 68.5% for remaining activity (NEK1 (Homo sapiens, UniProt Q96PY6)).
It gave 95.8% for remaining activity (TEK (Homo sapiens, UniProt Q02763)).
JAK3 (Homo sapiens, UniProt P52333) — remaining activity: 43.7%.
It gave 53.2% for remaining activity (MAP3K5 (Homo sapiens, UniProt Q99683)).
The remaining activity was 100% (MST1R (Homo sapiens, UniProt Q04912)).
The remaining activity was 50.2% (FGFR1 (Homo sapiens, UniProt P11362)).
For TBK1 (Homo sapiens, UniProt Q9UHD2): remaining activity read 21.6%.
For FRK (Homo sapiens, UniProt P42685): remaining activity read 97.1%.
It gave 98.4% for remaining activity (GSK3B (Homo sapiens, UniProt P49841)).
The remaining activity was 109% (MAPK3 (Homo sapiens, UniProt P27361)).
For WEE1 (Homo sapiens, UniProt P30291): remaining activity read 82.3%.
For NEK6 (Homo sapiens, UniProt Q9HC98): remaining activity read 98.6%.
It gave 123% for remaining activity (MAP3K14 (Homo sapiens, UniProt Q99558)).

Set 4
SMILES: CS(=O)(=O)NCC[C@H](NC(=O)c1cncc2c1cnn2-c1ccc(F)cc1)c1ccnc(S(C)(=O)=O)c1
Effect on: cell-free assay
Technique: competition with immobilised ligand
Tested at: 1 µM
TAOK1 (Homo sapiens, UniProt Q7L7X3) — remaining binding: 82%.
The remaining binding was 100% (AKT1 (Homo sapiens, UniProt P31749)).
The remaining binding was 100% (MAP3K14 (Homo sapiens, UniProt Q99558)).
TNK2 (Homo sapiens, UniProt Q07912) — remaining binding: 100%.
It gave 100% for remaining binding (ROCK1 (Homo sapiens, UniProt Q13464)).
CLK4 (Homo sapiens, UniProt Q9HAZ1) — remaining binding: 85%.

Repeated from above (set 3):
It gave 53.2% for remaining activity (MAP3K5 (Homo sapiens, UniProt Q99683)).
The remaining activity was 50.2% (FGFR1 (Homo sapiens, UniProt P11362)).
It gave 123% for remaining activity (MAP3K14 (Homo sapiens, UniProt Q99558)).
